Measured values pooled from the literature.
Numbered parts are unrelated; each lists some results of a single study. Changes are numbered by the printed parent chain.

Set 1
Target: Interferon regulatory factor 5, full length, phosphomimetic (IRF5, Homo sapiens, UniProt Q13568-2, residues 1-514, K96S/S451D/S453D/S456D/S462D)
Technique: protein-binding microarray
Molecule type: double-stranded DNA, one strand shown
Medium: in vitro
Concentration: 250 nM
Notes: 60-bp whole probe
With: salmon DNA 0.4 mg/ml
Baseline: random background probes
Reading: higher = stronger binding
Constant ends, left off below: GCCTAGCAC … GTCTTGATTCGCTTGACGCTGCTG
Strand | log fluorescence
GACGGTACCGACTTTCGGGACGTGCTA | 5.17 z-score
TCAAGCTTGGGTCTGTGACTGTGCTAG | -0.533 z-score
TTAGGTTTCGCGTTTCGGTTAGTGCTA | 7.72 z-score
GCTCCTTCCCCTCTAGGTCTGTGCTAG | -0.0456 z-score
GTCGAACTGAGTCTCGAGACGTGCTAG | 0.335 z-score
GACGGTCTACTTTTCCTGACGTGCTAG | 0.37 z-score
TTATATATCGGGTTTCGATTAGTGCTA | 7.07 z-score
GACGAACTCAGTCTCGAGACGTGCTAG | -0.0421 z-score
TTAGGACTGGGGTATCTGTTAGTGCTA | -0.00855 z-score

Set 2
Target: CCNE2, cyclin fold, Cln2 fusion (human)
Technique: yeast growth competition, sequencing
Medium: yeast
Notes: weak parent motif
Baseline: not given
Reading: higher = stronger binding
Starting sequence: SAMHD1 docking peptide (human); ASKSRVQLFKDDP; partner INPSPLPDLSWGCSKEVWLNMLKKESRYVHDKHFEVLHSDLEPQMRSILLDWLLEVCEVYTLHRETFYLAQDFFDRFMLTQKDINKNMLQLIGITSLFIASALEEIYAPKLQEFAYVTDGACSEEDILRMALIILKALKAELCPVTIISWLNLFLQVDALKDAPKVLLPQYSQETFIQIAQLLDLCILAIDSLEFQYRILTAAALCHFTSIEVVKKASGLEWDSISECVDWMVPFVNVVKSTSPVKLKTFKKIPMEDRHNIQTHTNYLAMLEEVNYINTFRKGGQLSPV
Change | normalised enrichment score
ACKSRVQLFKDDP [S2C] | -0.131
ASNSRVQLFKDDP [K3N] | -0.225
ASKSRVQLTKDDP [F9T] | 0.0983
ASKSRVQLFPDDP [K10P] | -0.000471
ASKSRVQLFKHDP [D11H] | -0.0671
ASKSRVQLYKDDP [F9Y] | 0.208
AKKSRVQLFKDDP [S2K] | -0.402

Set 3
Target: Sal-like protein 4, full length isoform B (SALL4, Homo sapiens, UniProt Q9UJQ4-2, residues 1-616)
Technique: universal PBM
Molecule type: double-stranded DNA, one strand shown
Medium: in vitro
Concentration: not given
Notes: 8-mer, flanks averaged, mean of replicates
Reading: higher = stronger binding
Construct (chain): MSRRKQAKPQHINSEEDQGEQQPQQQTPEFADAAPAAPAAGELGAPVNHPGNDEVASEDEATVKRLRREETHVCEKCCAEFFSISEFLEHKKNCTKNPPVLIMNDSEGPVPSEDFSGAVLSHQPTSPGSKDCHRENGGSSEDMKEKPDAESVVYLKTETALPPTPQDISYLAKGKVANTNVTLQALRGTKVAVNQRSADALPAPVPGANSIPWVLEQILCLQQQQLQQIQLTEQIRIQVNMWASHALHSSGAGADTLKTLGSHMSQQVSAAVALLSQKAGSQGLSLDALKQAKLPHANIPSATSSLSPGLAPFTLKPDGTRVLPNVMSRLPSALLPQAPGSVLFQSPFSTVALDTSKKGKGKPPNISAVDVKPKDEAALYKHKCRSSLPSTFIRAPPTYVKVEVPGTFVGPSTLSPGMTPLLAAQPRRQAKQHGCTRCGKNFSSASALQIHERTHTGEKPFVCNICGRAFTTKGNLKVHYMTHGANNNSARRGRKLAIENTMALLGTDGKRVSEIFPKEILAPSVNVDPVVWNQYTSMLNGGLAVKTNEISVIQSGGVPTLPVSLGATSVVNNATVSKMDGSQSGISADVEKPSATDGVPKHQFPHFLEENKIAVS
Strand | E-score
CTATAAAC | 0.279
TGTAATAA | 0.443
CAAAAGCA | 0.0396
GCGAGCCC | -0.292
AAGCCGCT | -0.238
CGCCGCTA | -0.3
AGTAGAAT | 0.222
CCTGCGGA | -0.259
CATGCCCG | -0.181
TCGACTCA | 0.0348

Other studies, line by line
Molecule | target | assay | test system | setting | how to read | quantity | result
PhoQ, residues 284 288 289 292 302 303 NLALSC | PhoP, residues 12 14 15 18 19 TPLRH (Escherichia coli, UniProt P23836) | Sort-seq, item: YFP reporter | E. coli | PhoQ-PhoP variant library, with: 10 µM Mg2+ | baseline: high Mg2+ state, higher = stronger signaling | fold induction | 0.562

Excerpt of the above (set 3):
Strand | E-score
CCTGCGGA | -0.259
AGTAGAAT | 0.222
AAGCCGCT | -0.238
